Literature values, collected from citations in different studies.
Each numbered part shows a few of the values that one paper quotes.

Block 1 — read-out: peptide-MHC binding; form: peptide
Target: HLA class I histocompatibility antigen, A alpha chain, allele A*80:01 (Homo sapiens, UniProt P04439)
Molecule | IC50
LEGLADAIW | > 20000 nM
WLGWGHAWV | > 20000 nM
ALTDLGLIY | 1.93 nM
FNCGGEFFY | 52.8 nM
WHTTKGAAL | > 20000 nM
KEAVNHFHL | > 20000 nM
SLFTEQAFY | 8.86 nM
FAAPHRGVA | > 20000 nM
YTDKIAMSY | 1 nM
KLGDITLFL | 16 nM
VYQRGTHPF | > 20000 nM
WTLAKPDFV | > 20000 nM
RKLTNPANK | > 20000 nM
CSDETTLYY | 25.8 nM

Further values, each from its own experiment
Compound | target or system | assay | test system | conditions | quantity | result
CCOC(=O)c1ccc(OC(=O)CCCCCNC(=N)N)cc1 | plasmin | enzyme activity, inhibitor | – | – | IC50, Ki or Kd | 1600 nM
CCN(CC)C(=O)c1ccc([C@H](c2ccccc2)N2C[C@@H](C)N(Cc3cccc(F)c3)C[C@@H]2C)cc1 | rat kappa opioid receptor | binding | – | – | Ki | 2300 nM
CN(C)c1ccc(N(Cc2ccsc2)C(=O)Cn2nnc3ccccc32)cc1 | main protease (Mpro) | – | – | 50 µM | inhibition | 90.3%
CC(C)[C@H](NC(=O)[C@H](CCCNC(=N)N)NC(=O)N[C@@H](Cc1ccccc1)C(=O)O)C(=O)N[C@H](C=O)CCCNC(=N)N | plasmin | enzyme activity, inhibitor | – | – | IC50, Ki or Kd | 6600 nM
Cc1cccc(-c2[nH]c(CNc3ccccc3F)nc2-c2ccc3ncnn3c2)n1 | – | – | rat, male | 13 weeks, repeated dose | NOAEL | 20 mg/kg/day
CCN(CC)CCOc1ccc2c(c1)C(=O)c1cc(OCCN(CC)CC)ccc1-2 | – | – | human liver microsomes | – | intrinsic clearance | 10.9 µL/min/mg protein
CC(=O)O[C@@]12CO[C@@H]1C[C@H](O)[C@@]1(C)C(=O)[C@H](OC(=O)C3CC3)C3=C(C)[C@@H](OC(=O)[C@H](O)[C@H](C=C(C)C)NC(=O)OC(C)(C)C)C[C@@](O)([C@@H](OC(=O)c4ccccc4)[C@H]21)C3(C)C | CFPAC-1 | cytotoxicity | – | – | IC50 | 0.71 nM
COc1ccccc1OCCNC(=O)c1cc(=O)[nH]c2cc(F)ccc12 | main protease (Mpro) | – | – | 20 µM | inhibition | -6.6%
Nc1cccc2c1C(=O)N(C1CCC(=O)NC1=O)C2=O (centres unmarked) | – | – | human, relapsed/refractory multiple myeloma | continuous dosing | MTD | 2 mg
S=C(NC1CCCCC1)N1CCC(c2cnc[nH]2)CC1 | – | tail flick test | rat | intracerebroventricular, 340 nmol | antinociceptive activity | inactive
CCN(CC)N=O | – | fingerprint mutation, item: C>T substitution | mouse, liver | concentration not given | mutation frequency | increased
Oc1ccc(-c2ccc(Cl)cc2)cc1 | – | – | rat liver | 1 µM | sulfonation rate | 8 pmol/min/mg protein
CCN(CC)CCCC(C)Nc1c2ccc(Cl)cc2nc2ccc(OC)cc12 (centres unmarked) | – | – | guinea pig liver microsomes | – | intrinsic clearance | 81.3 µL/min/mg protein
CNC(=NC#N)NCCCCc1[nH]cnc1C | – | antinociception, hot plate test | rat | intracerebroventricular, 5 min | ED50 | 105 nmol
CC1(C)CCC(CN2CCN(c3ccc(C(=O)NS(=O)(=O)c4ccc(NCC5CCOCC5)c([N+](=O)[O-])c4)c(Oc4cnc5[nH]ccc5c4)c3)CC2)=C(c2ccc(Cl)cc2)C1 | – | – | human | oral, 100 mg single dose | AUC | 7100 ng·h/mL

Some of these lines once more (further values, each from its own experiment):
Compound | target or system | assay | test system | conditions | quantity | result
CCN(CC)N=O | – | fingerprint mutation, item: C>T substitution | mouse, liver | concentration not given | mutation frequency | increased
Oc1ccc(-c2ccc(Cl)cc2)cc1 | – | – | rat liver | 1 µM | sulfonation rate | 8 pmol/min/mg protein
CCN(CC)CCCC(C)Nc1c2ccc(Cl)cc2nc2ccc(OC)cc12 (centres unmarked) | – | – | guinea pig liver microsomes | – | intrinsic clearance | 81.3 µL/min/mg protein
